Published values of several laboratories.
Numbered parts are unrelated; each lists some results of a single study. Substitutions count along the parent as printed.

Study 1 — method: DHFR PCA, dose-response; medium: yeast; notes: Hill fit, mean, not affinity; added: (+)-ABA, dose series; reading: lower = more sensitive; endpoint: ABA EC50
Target: ABI1, truncated, D143A, DHFR fusion (Arabidopsis thaliana, UniProt P49597)
Starting sequence: PYL1, truncated, DHFR fusion (Arabidopsis thaliana, UniProt Q8VZS8); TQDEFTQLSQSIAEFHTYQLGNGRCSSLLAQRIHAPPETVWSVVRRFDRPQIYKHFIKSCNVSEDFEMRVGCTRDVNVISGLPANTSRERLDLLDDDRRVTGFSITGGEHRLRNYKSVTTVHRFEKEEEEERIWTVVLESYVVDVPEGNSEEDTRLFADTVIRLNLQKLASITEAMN
L29F: 99.4 µM
S9E: 2.06 µM
E151K: 3.32 µM
T106N: 56.2 µM
Q7P: 3.77 µM
D65Q: 4.02 µM
R155V: 3.06 µM
E152Q: 2.78 µM
S140G: 344 µM
R132Y: 1.95 µM
S11P: 5.56 µM
A175P: 11 µM
Y18H: 1.73 µM
Q7G: 2.82 µM
I52L: 4.92 µM
N77A: 2.07 µM
N85P: 77.3 µM

Study 2 — target: CCNB3, cyclin fold, Cln2 fusion (human); method: yeast growth competition, sequencing; medium: yeast; notes: strong parent motif; relative to: not given; reading: higher = stronger binding; endpoint: normalised enrichment score
Starting sequence: PKN2 docking peptide (human); VSAVRKLDFSDTM; partner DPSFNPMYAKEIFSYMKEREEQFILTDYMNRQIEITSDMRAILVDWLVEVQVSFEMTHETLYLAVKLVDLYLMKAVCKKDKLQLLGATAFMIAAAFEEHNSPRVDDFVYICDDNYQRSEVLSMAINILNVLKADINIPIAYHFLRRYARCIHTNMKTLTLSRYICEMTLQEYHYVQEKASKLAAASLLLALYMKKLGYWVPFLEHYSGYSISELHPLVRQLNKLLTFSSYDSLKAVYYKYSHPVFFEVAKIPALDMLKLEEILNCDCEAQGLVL
S10P: 1.18
S10L: 0.734
R5H: 0.1
L7Y: 0.0449
A3K: 0.0261
K6W: 0.659
S10V: 0.411
K6S: 0.54
S10H: 1.29
L7V: -0.315
F9I: 0.154
D8G: 0.128
S2H: 1.6
T12E: 1.28
S2D: 0.793
D11H: 1.51
S10F: 0.505
F9G: 0.231
V4D: -0.0285
A3W: 0.588
F9D: -0.127
K6E: 0.126
K6I: 1.5
T12H: 1.7
T12W: 1.39

Study 3 — method: RNA Bind-n-Seq; form: RNA; medium: in vitro; concentration: 365 nM; relative to: no-protein control; reading: higher = stronger binding; endpoint: RBNS enrichment (R)
Target: RNA binding protein fox-1 homolog 2, RRM domain, GST-SBP tag (RBFOX2, Homo sapiens, UniProt O43251-10, residues 100-194)
Notes: natural RNA segment, single round, ends assumed
Residues (chain): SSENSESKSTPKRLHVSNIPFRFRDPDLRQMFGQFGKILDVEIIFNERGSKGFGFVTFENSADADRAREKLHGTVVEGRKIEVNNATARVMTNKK
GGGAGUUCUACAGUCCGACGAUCAGACCACCAAAGAUUCCCUGUCCAUGACCUCUGAGGCGGGGUUACCUUGCUUGUCGGACCAAGGCAGCGAUGGUUGUGAUGAUGAUGGCUUGGUGAUAUCUGGGUAUGGCUGGAAUUCUCGGGUGCCAA: 1.3
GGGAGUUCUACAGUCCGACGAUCCUUUGACAUCUUUUAAAGAGUCUGGAUAAAUCUGACUCGUUGCUCAAUAGGGUUUAUUUGGCAGUGGGAUUCACAUCUUCCUGCACUCCUGCCAGCAGUACAGGGCACAGUGGAAUUCUCGGGUGCCAA: 0.448
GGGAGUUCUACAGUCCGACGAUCGCCAGCGCUUCCUGGAUGAGCCUGCCUCACUAGCCCCGCUUCUCACCCUGCCUGGCAGCCGGGAAGCCUCCAGGCCUGCAGCCAUCAGCAGAACACAGGGAGAUGAUGUGUGGAAUUCUCGGGUGCCAA: 0.239
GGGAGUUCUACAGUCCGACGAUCGUGCUCCUGCUUCGGCUCUGUUUCGGCUCACAGGUGUGCAUCACUGGGCUUGGAUUUGCAUUACAUUGACCCCAGCCCUGCAGUGGAACCUAAUAAAAGCGCCUGAAGCAUGGAAUUCUCGGGUGCCAA: 12.3
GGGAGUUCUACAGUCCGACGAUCGCUGACUGCUCCAGACCACUGCAGUGACGACGCCUAGCAGUCCUGCCCUGCUGCUGCUGCCGCCCCGCUACAGAGGCAAUGUGACCAGUCACAGGGACAGAUCACAUCUCUGGAAUUCUCGGGUGCCAA: 0.372
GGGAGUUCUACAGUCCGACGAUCAGCCAUUAGAAAGAUUGUUAAUCCUAUGAACUCCCUUUUGUAGGAGAGAAAGGGCCAAUCUGUAGGGGUAGCCCUGUCCAGGUAAAGUUGUUUUCAGCCUCAUGUCUACUUGGAAUUCUCGGGUGCCAA: 0.301
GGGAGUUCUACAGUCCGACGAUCGUAACGAUGACCUCCUGUCUCUAUUUGAGAACAACUGGGGCCACCCGGUCGGGGCCAUCCCUCCACACUCUGCAUCCUACCCCACCUACCCAACACACUUUUCCACCUGGUGGAAUUCUCGGGUGCCAA: 1.13
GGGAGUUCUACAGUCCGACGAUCAUCAACCUAAGUUGGAAACAGAAAGUGUGUCUAGUGUCAUUGAAGUGCGUGCUUGGCAGUUCCAUGUUACCUACCACCCAUUAGUUAGCAAGCGAACUUAGUGCCACAGGUGGAAUUCUCGGGUGCCAA: 0.741

Study 4 — method: protein-binding microarray; form: double-stranded DNA, one strand shown; medium: in vitro; concentration: 0.8 µM; notes: whole 60-bp probe, no competitor; reading: higher = stronger binding; endpoint: fluorescence intensity
Target: Centromere-binding protein 1, full length, N-terminal tag (CBF1, Saccharomyces cerevisiae, UniProt P17106, residues 1-351)
UniProt P17106, sequence (whole entry, looked up): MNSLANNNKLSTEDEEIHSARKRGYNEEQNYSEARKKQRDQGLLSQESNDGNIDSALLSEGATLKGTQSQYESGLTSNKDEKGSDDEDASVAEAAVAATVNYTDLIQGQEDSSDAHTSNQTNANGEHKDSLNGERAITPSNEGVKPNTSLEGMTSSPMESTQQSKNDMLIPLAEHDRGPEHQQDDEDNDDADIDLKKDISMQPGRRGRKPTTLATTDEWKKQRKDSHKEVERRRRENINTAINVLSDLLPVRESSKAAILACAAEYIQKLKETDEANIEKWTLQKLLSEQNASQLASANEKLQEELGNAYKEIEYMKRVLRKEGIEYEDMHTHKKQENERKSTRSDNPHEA
GAACTACACCTGACTCACATGACAGCATTTCCTTAGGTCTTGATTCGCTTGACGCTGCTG: 2050 a.u.
CTAATTATCAAATTTGATGATCACAACCAATGTTTCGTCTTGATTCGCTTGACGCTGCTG: 531 a.u.
GAACATAGCGTATACACGTGCACTCACAAGCATTAGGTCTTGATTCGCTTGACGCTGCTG: 5470 a.u.
CCTAACTACTATAAACTGGTGACATAGCTTCGTACAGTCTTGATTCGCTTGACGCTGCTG: 510 a.u.
CTAATATTATATTATCACATGCGGTGTAAGAAGTTCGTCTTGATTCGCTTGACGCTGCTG: 1550 a.u.
GAACAAAAATAGTGCCACGTCGGTACGGTCGGGTAGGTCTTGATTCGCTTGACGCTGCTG: 578 a.u.
CTAAAGCGAAGACATCAGACATTCCAGTAGGGTTTCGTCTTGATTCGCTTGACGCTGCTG: 527 a.u.
CTAGAAGACCCACATCAGGCGGCAGAAATGGTTTTCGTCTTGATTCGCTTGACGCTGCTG: 508 a.u.
GAAGACAGCACTCTGCACGAGCTTTGTGTGTGCTAGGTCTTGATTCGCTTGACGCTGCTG: 559 a.u.
GAAGTAGGGCCATCTCGCGTGCCAGAACAGACATAGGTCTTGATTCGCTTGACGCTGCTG: 530 a.u.
CCTAACTACTATACGCACGTCATATAGCTTCGTACAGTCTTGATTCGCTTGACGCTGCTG: 523 a.u.
GAAAGCGAATACCGGCTGATGTACAGAAGCGAATAGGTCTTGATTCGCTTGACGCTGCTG: 510 a.u.
CTACACATATTTCAGCTGACTATAAATTTGGCATTCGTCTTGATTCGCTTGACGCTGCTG: 729 a.u.
CTATTCAAGAAGCACCACGACAGACCAGGTTTGTTCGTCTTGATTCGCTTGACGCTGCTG: 508 a.u.
GAATGATATTCCACTCACGAGCTACAGGTAGTATAGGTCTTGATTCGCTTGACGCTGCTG: 631 a.u.
GAAAGAAAAATTACTTTCATGATGCGAAGCGAATAGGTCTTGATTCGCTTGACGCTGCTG: 507 a.u.
CTACAATTAAAAAAACACGAGGAACAGAATGTCTTCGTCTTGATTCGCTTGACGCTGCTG: 830 a.u.
CCTAACTACTATAGACACGAAATATAGCTTCGTACAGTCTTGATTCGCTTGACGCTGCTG: 523 a.u.

A few entries again (study 4):
GAACAAAAATAGTGCCACGTCGGTACGGTCGGGTAGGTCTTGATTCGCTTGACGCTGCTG: 578 a.u.
CCTAACTACTATAAACTGGTGACATAGCTTCGTACAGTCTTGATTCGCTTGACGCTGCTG: 510 a.u.
GAATGATATTCCACTCACGAGCTACAGGTAGTATAGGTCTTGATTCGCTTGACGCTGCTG: 631 a.u.
GAAAGAAAAATTACTTTCATGATGCGAAGCGAATAGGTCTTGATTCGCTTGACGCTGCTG: 507 a.u.
CTAGAAGACCCACATCAGGCGGCAGAAATGGTTTTCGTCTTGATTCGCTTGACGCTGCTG: 508 a.u.
GAACATAGCGTATACACGTGCACTCACAAGCATTAGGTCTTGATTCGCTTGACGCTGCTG: 5470 a.u.
GAAGACAGCACTCTGCACGAGCTTTGTGTGTGCTAGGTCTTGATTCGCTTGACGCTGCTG: 559 a.u.
GAAAGCGAATACCGGCTGATGTACAGAAGCGAATAGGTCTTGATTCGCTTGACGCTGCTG: 510 a.u.
CTAAAGCGAAGACATCAGACATTCCAGTAGGGTTTCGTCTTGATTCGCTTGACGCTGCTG: 527 a.u.
CTAATTATCAAATTTGATGATCACAACCAATGTTTCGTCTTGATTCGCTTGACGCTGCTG: 531 a.u.
GAACTACACCTGACTCACATGACAGCATTTCCTTAGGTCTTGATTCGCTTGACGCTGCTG: 2050 a.u.
CTATTCAAGAAGCACCACGACAGACCAGGTTTGTTCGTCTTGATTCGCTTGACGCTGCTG: 508 a.u.
